# Measurements pooled from the literature.
# Compare with care: the assays were run in different laboratories. ± marks the error that the study gave.
# UniProt P08183, sequence (whole entry, looked up): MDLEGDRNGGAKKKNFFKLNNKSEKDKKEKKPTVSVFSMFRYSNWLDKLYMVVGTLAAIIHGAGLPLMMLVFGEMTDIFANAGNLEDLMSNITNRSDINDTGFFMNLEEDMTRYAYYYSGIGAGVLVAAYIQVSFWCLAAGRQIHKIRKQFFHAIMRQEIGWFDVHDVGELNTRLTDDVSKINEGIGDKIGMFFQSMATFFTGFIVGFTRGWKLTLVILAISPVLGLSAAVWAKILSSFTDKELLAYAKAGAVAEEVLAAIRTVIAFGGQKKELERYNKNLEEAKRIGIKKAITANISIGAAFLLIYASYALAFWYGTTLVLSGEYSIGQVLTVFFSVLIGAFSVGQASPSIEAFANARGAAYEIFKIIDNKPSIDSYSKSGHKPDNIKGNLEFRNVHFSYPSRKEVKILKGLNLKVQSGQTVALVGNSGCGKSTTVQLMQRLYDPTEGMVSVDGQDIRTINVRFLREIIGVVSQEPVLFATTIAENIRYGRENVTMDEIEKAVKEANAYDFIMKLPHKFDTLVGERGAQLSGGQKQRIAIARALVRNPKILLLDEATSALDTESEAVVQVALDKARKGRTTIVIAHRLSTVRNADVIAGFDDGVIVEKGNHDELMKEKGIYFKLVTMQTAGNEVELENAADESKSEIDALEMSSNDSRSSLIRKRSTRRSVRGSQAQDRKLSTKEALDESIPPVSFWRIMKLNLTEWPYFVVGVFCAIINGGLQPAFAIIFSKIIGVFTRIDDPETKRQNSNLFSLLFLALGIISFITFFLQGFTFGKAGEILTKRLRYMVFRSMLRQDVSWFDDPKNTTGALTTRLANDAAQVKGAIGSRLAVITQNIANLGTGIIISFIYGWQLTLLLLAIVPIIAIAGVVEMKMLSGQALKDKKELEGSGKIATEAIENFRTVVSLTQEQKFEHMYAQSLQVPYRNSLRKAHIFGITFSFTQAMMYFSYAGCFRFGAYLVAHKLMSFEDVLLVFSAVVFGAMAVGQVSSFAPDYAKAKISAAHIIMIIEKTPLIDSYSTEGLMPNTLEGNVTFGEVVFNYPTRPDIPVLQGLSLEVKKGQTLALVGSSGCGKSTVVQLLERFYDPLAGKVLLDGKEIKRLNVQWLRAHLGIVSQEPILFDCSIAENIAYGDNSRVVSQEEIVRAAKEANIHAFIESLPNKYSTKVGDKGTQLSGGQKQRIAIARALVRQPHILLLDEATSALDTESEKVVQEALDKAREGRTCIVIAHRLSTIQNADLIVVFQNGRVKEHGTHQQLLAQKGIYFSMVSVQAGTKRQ
SMILES,tested on,assay,test system,setting,scale,measurement,result
CN(C)CCCN1c2ccccc2CCc2ccc(Cl)cc21,African green monkey cells,,,5 days,,CC50,16 µM
COc1cc2c(Oc3ccc4[nH]c(C)cc4c3F)ccnc2cc1OCC1(N)CC1,,,paediatric refractory sarcoma patients,8 mg,,TBIL elevation incidence,0%
C=CC(=O)N1CC[C@H](n2nc(C#Cc3cc(OC)cc(OC)c3)c3c(N)ncnc32)C1,,,patients with advanced solid tumours,"oral, dose not given, Stomatitis, any grade, QD, together with: phosphate-binding therapy",,adverse drug reaction incidence,12.5%
O=c1cc(-c2ccc(O)c(O)c2)oc2cc(O)cc(O)c12,,,"Sprague-Dawley rat, male, obese, faeces","oral, 100 mg/kg neohesperidin, 48 h",,cumulative faecal excretion,211.1 ± 1.23 ng
O.O.O.O.O.O.[Cl-].[Cl-].[Co+2],,,"rat male, urine","oral, 10 mg/kg single, day 1",,cobalt in urine,9790 µg/L
CN1CC[C@@H](c2c(O)cc(O)c3c(=O)cc(-c4ccc(C(F)(F)F)cc4Cl)oc23)[C@@H]1CO,,measured: Sepsis,B-cell malignancies,"oral, 100 mg, intermittent dosing",,patients with adverse event,0%
CCc1ccc(CC/C=C/c2ccc3c(c2)C(=O)CC3)cc1,,,"Sprague-Dawley rat, male","oral, 450 mg/kg/day, 14 days",,Calcium,2.45 mM
CC1CC(c2ccc(O)cc2)=NN1c1ccc(C#N)c(Cl)c1 (stereo not shown),,,PBS,90 min,,kinetic solubility,81 µM
c1csc(CNc2cc[nH]n2)c1,,micronucleus,"CD-1 mouse Hsd:ICR(CD-1), female, bone marrow","oral, 250 mg/kg/day, 3 days",,PCE to total erythrocyte ratio,0.474
CC(C)[C@@H](CS(=O)(=O)C(C)C)N1C(=O)[C@@](C)(CC(=O)O)C[C@H](c2cccc(Cl)c2)[C@H]1c1ccc(Cl)cc1,,MALDI-MSI,"B6.129S7-Rag1tm1Mom/J orthotopic PDX mice, normal brain","25 mg/kg two doses, 2 h after second dose",,median concentration,450 nmol/L
O=C(O)CCC(CP(=O)(O)O)C(=O)O (stereo not shown),,,processed derivatized rat plasma,"at least 18 h, 10 °C, autosampler",,stability,stable
C[C@@H]1NC(=O)[C@H](CCCCNC(=O)CO/N=C/C(=O)NCCCC[C@@H]2NC(=O)[C@@H](Cc3ccccc3)NC(=O)[C@H](CC(=O)O)NC(=O)CNC(=O)[C@H](CCCNC(=N)N)NC2=O)NC(=O)CNC(=O)[C@@H]2CCCN2C(=O)[C@H](CCCCNC(=O)CO/N=C/C(=O)NCCCC[C@@H]2NC(=O)[C@@H](Cc3ccccc3)NC(=O)[C@H](CC(=O)O)NC(=O)CNC(=O)[C@H](CCCNC(=N)N)NC2=O)NC(=O)[C@H](CCCCNC(=O)CCNC(=O)CCNC(=O)CCNC(=O)[C@H](CCCCN)NC(=O)[C@H](Cc2ccccc2)NC(=O)CNC(=O)CN2CCCNCCNCCCNCC2)NC(=O)[C@H](CCCCNC(=O)CO/N=C/C(=O)NCCCC[C@@H]2NC(=O)[C@@H](Cc3ccccc3)NC(=O)[C@H](CC(=O)O)NC(=O)CNC(=O)[C@H](CCCNC(=N)N)NC2=O)NC(=O)CNC(=O)[C@@H]2CCCN2C(=O)[C@H](CCCCNC(=O)CO/N=C/C(=O)NCCCC[C@@H]2NC(=O)[C@@H](Cc3ccccc3)NC(=O)[C@H](CC(=O)O)NC(=O)CNC(=O)[C@H](CCCNC(=N)N)NC2=O)NC1=O [copper-64 labelled],,biodistribution after PET,"mouse, U-87 MG tumour xenograft, tumor","intravenous, 24 h",,tissue uptake,2.55 ± 0.3 %ID/g
CN1[C@@H]2CC[C@H]1C[C@@H](OC(c1ccccc1)c1ccc(Cl)cc1)C2 (stereo partly shown),African green monkey cells,,,5 days,,CC50,8.13 µM
COc1ccc(CCC2CCCC(CCc3ccc(OC)cc3)N2C[C@@H](O)CO)cc1.Cl (stereo in doubt),,,rabbit Purkinje fibres,"0.1 µM, cycle length 1 s",reference: baseline,APD90 change,23.8 ± 1.4%
CC(C)CC(=O)OC[C@H]1O[C@@](C#N)(c2ccc3c(N)ncnn23)[C@H](O)[C@@H]1O,"ABCB1 (Homo sapiens, UniProt P08183)",,Caco-2,"9 µM, 2 h",,Papp B to A,1.17 ×10⁻⁶ cm/s
COc1ncccc1-c1cnn2ccc(N3CCN(C(=O)OC(C)C)CC3)nc12,,,"rat, CCI mechanical allodynia model, plasma","oral, 3 mg/kg, 240 min",,drug concentration,560 nM

# Repeated from above:
SMILES,tested on,assay,test system,setting,scale,measurement,result
C=CC(=O)N1CC[C@H](n2nc(C#Cc3cc(OC)cc(OC)c3)c3c(N)ncnc32)C1,,,patients with advanced solid tumours,"oral, dose not given, Stomatitis, any grade, QD, together with: phosphate-binding therapy",,adverse drug reaction incidence,12.5%
O=c1cc(-c2ccc(O)c(O)c2)oc2cc(O)cc(O)c12,,,"Sprague-Dawley rat, male, obese, faeces","oral, 100 mg/kg neohesperidin, 48 h",,cumulative faecal excretion,211.1 ± 1.23 ng
O.O.O.O.O.O.[Cl-].[Cl-].[Co+2],,,"rat male, urine","oral, 10 mg/kg single, day 1",,cobalt in urine,9790 µg/L
